Measurements pooled from the literature.
Lines come from different studies, so protocols differ. ± gives the spread as reported.

The tissue uptake of CN1Cc2cc(Cl)ccc2-n2c(nnc2C2CCN(c3cccc([18F])n3)CC2)C1 is reported as 10.7 ± 6.78 %ID/g (C57BL/6 mouse male, adrenal gland; intravenous, 3.7 MBq, 1 min).
CC[C@H](C)[C@H](NC(=O)[C@@H](Cc1c[nH]c2ccccc12)NC(=O)[C@@H]1CCCN1C(=O)[C@H](CCCCN)NC(=O)[C@H](CCCCN)NC(=O)CCNC(=O)CCNC(=O)CN1CCN(CC(=O)O)CCN(CC(=O)O)CCN(CC(=O)O)CC1)C(=O)N[C@@H](C[Si](C)(C)C)C(=O)O [gallium-68 labelled] has a tissue uptake of 0.84 ± 0.5 %ID/g (nude mouse HT-29 xenograft, spleen; 90 min).
For CC[C@H](C)[C@H](NC(=O)[C@H](CCCCN)NC(=O)CNC(=O)[C@H](CC(C)C)NC(=O)[C@H](Cc1ccccc1)NC(=O)[C@H](CCCCN)NC(=O)[C@H](CO)NC(=O)[C@H](Cc1ccccc1)NC(=O)[C@H](Cc1c[nH]c2ccccc12)NC(=O)[C@H](CCC(N)=O)NC(=O)[C@@H](NC(=O)[C@H](Cc1ccccc1)NC(=O)CCCCCNC(=O)CN1CCN(CC(=O)O)CCN(CC(=O)O)CCN(CC(=O)O)CC1)C(C)C)C(=O)N[C@@H](CCC(=O)O)C(=O)N1CCC[C@H]1C(=O)N[C@@H](CC(=O)O)C(=O)N[C@H](C(=O)N[C@@H](CO)C(=O)N[C@@H](CCC(N)=O)C(=O)N[C@H](C(=O)N[C@@H](CCC(N)=O)C(=O)N[C@@H](CC(=O)O)C(=O)N1CCC[C@H]1C(=O)N[C@@H](CC(N)=O)C(=O)N[C@@H](CC(=O)O)C(=O)N[C@@H](CCC(N)=O)C(=O)N[C@@H](Cc1ccc(O)cc1)C(=O)N[C@@H](CCC(=O)O)C(=O)N1CCC[C@H]1C(=O)N[C@@H](Cc1ccccc1)C(=O)O)C(C)C)C(C)C [copper-64 labelled], the tissue uptake was 1.74 ± 0.3 %ID/g (GZMB-/- mice, CT26 tumour-bearing, tumor; 2 h, checkpoint inhibitor-treated).
CSCC[C@H](NC(=O)CNC(=O)[C@H](CCCCN)NC(=O)[C@H](CC(C)C)NC(=O)[C@@H]1CCCN1C(=O)[C@H](CO)NC(=O)[C@H](Cc1c[nH]cn1)NC(=O)[C@H](Cc1c[nH]c2ccccc12)NC(=O)[C@H](CCCNC(=N)N)NC(=O)[C@H](CC(C)C)NC(=O)[C@H](CCCNC(=N)N)NC(=O)[C@H](Cc1c[nH]c2ccccc12)NC(=O)[C@H](CS)NC(=O)CCCCCNC(=O)CN1CCN(CC(=O)O)CCN(CC(=O)O)CCN(CC(=O)O)CC1)C(=O)O [copper-64 labelled] gave a tissue uptake of 0.81 %ID/g (ex vivo biodistribution; BALB/c nude mice, bone; intravenous, dose not given, 18 h, Huh-7 tumour-bearing).
Cc1ccccc1-c1ccc(-c2nc(-c3ccc(CN(C)CCCC(=O)O)c([18F])c3)no2)cc1C(F)(F)F gave a tissue uptake of 0.06 ± 0.03 %ID/g (male Sprague-Dawley rat, blood; 120 min).
For CC[C@H](C)[C@H](NC(=O)[C@H](CCCNC(=N)N)NC(=O)[C@H](CCCCN)NC(=O)[C@H](Cc1ccc(O)cc1)NC(=O)[C@H](CC(=O)O)NC(=O)[C@H](C)NC(=O)CNC(=O)CCOCCOCCOCCNC(=O)CN1CCN(CC(=O)O)CCN(CC(=O)O)CCN(CC(=O)O)CC1)C(=O)N[C@H](C(=O)N[C@H](C(=O)N[C@@H](CCCCN)C(=O)N[C@H](C(=O)N[C@@H](CC(N)=O)C(N)=O)C(C)C)C(C)C)[C@@H](C)O [copper-64 labelled], the tissue uptake was 2.09 ± 0.014 %ID/g (ex vivo gamma counting; C57BL/6J male mice, B16-F10 tumour, lung; intravenous, 1.85 MBq, 100 min).
O=C1NC2(CC2)COc2ncc(F)cc2[C@H]2COCCN2c2ccn3ncc1c3n2 — result for “organ-to-body weight ratio”: 3.6 ± 0.344% (Sprague-Dawley rat, female, liver; oral, 10 mg/kg/day, 4 weeks, end of treatment).
C[C@H](O)[C@@H](NC(=O)[C@H]1CCCN1C(=O)[C@@H](CCCCN)NC(=O)[C@@H](CO)NC(=O)[C@@H](Cc1ccc(O)cc1)NC(=O)[C@@H](CC(N)=O)NC(=O)CCOCCOCCOCCNC(=O)CN1CCN(CC(=O)O)CCN(CC(=O)O)CCN(CC(=O)O)CC1)C(=O)N[C@H](CC(=O)O)C(=O)N[C@H](CCCNC(=N)N)C(=O)N[C@H](CCC(N)=O)C(=O)N[C@H](Cc1ccc(O)cc1)C(=O)N[C@H](Cc1c[nH]cn1)C(=O)N[C@H](Cc1ccccc1)C(N)=O [gallium-68 labelled] gave a tissue uptake of 0.14 ± 0.06 %ID/g (BALB/c nude mice U-87 MG tumour, bone; intravenous, 1.85 MBq, 2 h, radiolabelled).
For O=C(CN1CCN(CC(=O)NCP(=O)([O-])[O-])CCN(CC(=O)NCP(=O)([O-])[O-])CCN(CC(=O)NCP(=O)([O-])[O-])CC1)NCP(=O)([O-])[O-].[Gd+3], the tissue uptake was 0.58 ± 0.162 % injected dose/g (Sprague-Dawley rat, bone; intravenous (tail vein), dose not given, 2 h).
The tissue uptake of CCCC[C@H]1C(=O)N(C)[C@@H](CCCC)C(=O)N[C@@H](CCCNC(=O)CN2CCN(CC(=O)O)CCN(CC(=O)O)CCN(CC(=O)O)CC2)C(=O)N[C@H](C(=O)NCC(N)=O)CSCC(=O)N[C@@H](Cc2ccc(O)cc2)C(=O)N(C)[C@@H](C)C(=O)N[C@@H](CC(N)=O)C(=O)N2CCC[C@H]2C(=O)N[C@@H](Cc2c[nH]cn2)C(=O)N[C@@H](CC(C)C)C(=O)N(C)CC(=O)N[C@@H](Cc2c[nH]c3ccccc23)C(=O)N[C@@H](CO)C(=O)N[C@@H](Cc2c[nH]c3ccccc23)C(=O)N1C [gallium-68 labelled] is reported as 4.07 ± 0.42 %ID/g (NOD/SCID mice, CHO-hPD-L1 xenograft, bone; 60 min, with: blocking agent 50 µg co-injected).
The tissue uptake of CC(C)C[C@@H](NC(=O)[C@@H](CCCNC(=N)N)NC(=O)[C@@H](Cc1c[nH]cn1)NC(=O)[C@@H](Cc1c[nH]c2ccccc12)NC(=O)[C@@H](Cc1c[nH]cn1)NC(=O)[C@@H](Cc1ccccc1)NC(=O)[C@H](NC(=O)[C@@H](Cc1ccc(O)cc1)NC(=O)CNC(=O)CNC(=O)CCOCCOCCOCCNC(=O)CN1CCN(CC(=O)O)CCN(CC(=O)O)CC1)[C@H](C)O)C(=O)N[C@H](CC(N)=O)C(=O)N1CCC[C@@H]1C(=O)O [gallium-68 labelled] is reported as 35.7 ± 3.06 %ID/g (C57BL/6 mice, male, kidney; intravenous, 1.85 MBq, 60 min, with: blocking antibody).
For O=C([O-])CNC(=O)CN1CCN(CC(=O)NCC(=O)[O-])CCN(CC(=O)NCC(=O)[O-])CCN(CC(=O)NCC(=O)[O-])CC1.[177Lu+3], the tissue uptake was 0.281 ± 0.05 % injected dose/g (Sprague-Dawley rat, kidney; intravenous (tail vein), dose not given, 2 h).

Some of these lines once more:
For O=C([O-])CNC(=O)CN1CCN(CC(=O)NCC(=O)[O-])CCN(CC(=O)NCC(=O)[O-])CCN(CC(=O)NCC(=O)[O-])CC1.[177Lu+3], the tissue uptake was 0.281 ± 0.05 % injected dose/g (Sprague-Dawley rat, kidney; intravenous (tail vein), dose not given, 2 h).
